Measurements gathered from unrelated publications.
Each numbered part is a random draw from the data of one study; scales do not carry over between parts.
UniProt P42685, sequence (whole entry, looked up): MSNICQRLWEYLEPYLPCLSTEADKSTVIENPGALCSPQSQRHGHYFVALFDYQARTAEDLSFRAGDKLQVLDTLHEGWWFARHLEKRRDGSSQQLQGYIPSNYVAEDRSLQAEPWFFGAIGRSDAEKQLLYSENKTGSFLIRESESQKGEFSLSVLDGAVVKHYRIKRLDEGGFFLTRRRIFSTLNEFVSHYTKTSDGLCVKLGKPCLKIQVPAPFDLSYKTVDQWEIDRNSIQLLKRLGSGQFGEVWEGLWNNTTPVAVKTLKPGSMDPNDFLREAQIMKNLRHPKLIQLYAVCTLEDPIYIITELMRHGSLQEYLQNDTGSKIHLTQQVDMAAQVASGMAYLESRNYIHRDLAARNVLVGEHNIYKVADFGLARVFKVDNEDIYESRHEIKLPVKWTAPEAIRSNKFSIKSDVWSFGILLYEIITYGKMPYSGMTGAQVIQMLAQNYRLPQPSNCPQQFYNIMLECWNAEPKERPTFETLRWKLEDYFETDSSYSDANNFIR
UniProt Q13163, sequence (whole entry, looked up): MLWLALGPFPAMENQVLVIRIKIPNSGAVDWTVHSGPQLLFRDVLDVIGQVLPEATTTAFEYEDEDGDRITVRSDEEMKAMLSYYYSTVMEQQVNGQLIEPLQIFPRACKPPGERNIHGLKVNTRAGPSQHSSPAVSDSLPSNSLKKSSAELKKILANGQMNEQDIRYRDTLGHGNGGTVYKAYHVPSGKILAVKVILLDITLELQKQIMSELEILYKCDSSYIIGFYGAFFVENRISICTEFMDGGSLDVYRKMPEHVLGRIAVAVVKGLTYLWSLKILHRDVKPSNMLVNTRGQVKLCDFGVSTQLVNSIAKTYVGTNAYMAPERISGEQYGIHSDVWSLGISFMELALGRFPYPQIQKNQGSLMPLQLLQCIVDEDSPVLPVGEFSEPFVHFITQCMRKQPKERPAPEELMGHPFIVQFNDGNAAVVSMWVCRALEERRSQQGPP
UniProt Q13164, sequence (whole entry, looked up): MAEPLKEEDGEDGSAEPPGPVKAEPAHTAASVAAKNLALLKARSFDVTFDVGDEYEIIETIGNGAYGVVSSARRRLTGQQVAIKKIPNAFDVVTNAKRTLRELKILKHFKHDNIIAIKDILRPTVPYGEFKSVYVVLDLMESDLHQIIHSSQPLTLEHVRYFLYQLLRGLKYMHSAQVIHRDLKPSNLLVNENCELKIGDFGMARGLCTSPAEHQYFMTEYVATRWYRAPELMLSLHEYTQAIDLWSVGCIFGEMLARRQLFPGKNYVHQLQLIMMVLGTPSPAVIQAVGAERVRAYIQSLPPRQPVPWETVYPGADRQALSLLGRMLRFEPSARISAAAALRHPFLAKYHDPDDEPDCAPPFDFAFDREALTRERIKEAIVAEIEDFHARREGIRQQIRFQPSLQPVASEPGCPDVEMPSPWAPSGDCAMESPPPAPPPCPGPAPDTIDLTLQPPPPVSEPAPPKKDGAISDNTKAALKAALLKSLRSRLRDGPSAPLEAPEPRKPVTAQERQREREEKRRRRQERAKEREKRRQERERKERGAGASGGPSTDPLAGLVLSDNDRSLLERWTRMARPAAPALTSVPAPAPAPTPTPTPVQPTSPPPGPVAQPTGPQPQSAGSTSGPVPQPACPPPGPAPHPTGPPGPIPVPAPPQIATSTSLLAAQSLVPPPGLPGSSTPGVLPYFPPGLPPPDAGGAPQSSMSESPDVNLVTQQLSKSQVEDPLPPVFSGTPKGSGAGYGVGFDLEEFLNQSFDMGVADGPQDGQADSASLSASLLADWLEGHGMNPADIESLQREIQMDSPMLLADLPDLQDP
UniProt O95747, sequence (whole entry, looked up): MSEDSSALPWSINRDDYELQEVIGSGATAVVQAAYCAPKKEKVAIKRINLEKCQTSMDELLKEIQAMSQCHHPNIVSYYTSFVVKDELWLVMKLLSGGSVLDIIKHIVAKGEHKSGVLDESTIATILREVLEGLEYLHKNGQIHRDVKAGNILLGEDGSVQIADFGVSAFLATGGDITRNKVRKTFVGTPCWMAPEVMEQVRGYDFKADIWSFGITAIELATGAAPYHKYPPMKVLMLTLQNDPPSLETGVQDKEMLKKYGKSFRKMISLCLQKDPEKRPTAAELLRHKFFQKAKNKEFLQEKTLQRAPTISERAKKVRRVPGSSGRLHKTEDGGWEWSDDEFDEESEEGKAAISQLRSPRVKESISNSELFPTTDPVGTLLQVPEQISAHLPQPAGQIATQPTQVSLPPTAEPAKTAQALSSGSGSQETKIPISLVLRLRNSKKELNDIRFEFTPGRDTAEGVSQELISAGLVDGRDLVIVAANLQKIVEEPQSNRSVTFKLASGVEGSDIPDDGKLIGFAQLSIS
UniProt Q15418, sequence (whole entry, looked up): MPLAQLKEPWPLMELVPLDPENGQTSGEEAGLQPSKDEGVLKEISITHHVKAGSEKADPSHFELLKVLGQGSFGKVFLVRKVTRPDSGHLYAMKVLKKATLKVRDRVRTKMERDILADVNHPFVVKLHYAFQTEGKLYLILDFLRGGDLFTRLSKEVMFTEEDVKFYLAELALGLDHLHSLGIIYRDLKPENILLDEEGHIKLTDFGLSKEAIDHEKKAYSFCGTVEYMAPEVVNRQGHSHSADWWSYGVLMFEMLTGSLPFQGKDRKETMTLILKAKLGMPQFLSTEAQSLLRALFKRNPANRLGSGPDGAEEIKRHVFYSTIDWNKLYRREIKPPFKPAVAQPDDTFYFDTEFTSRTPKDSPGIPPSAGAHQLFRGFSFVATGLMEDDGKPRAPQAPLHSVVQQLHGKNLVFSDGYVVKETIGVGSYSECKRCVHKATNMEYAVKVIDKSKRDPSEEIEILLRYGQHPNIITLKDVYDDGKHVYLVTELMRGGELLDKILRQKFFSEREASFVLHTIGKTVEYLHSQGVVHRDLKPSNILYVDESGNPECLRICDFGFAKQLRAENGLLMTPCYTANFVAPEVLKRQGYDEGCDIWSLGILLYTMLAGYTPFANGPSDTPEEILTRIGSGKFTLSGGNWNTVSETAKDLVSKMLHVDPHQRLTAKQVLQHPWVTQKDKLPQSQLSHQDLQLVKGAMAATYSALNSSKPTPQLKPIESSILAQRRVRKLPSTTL
UniProt Q9UQ88, sequence (whole entry, looked up): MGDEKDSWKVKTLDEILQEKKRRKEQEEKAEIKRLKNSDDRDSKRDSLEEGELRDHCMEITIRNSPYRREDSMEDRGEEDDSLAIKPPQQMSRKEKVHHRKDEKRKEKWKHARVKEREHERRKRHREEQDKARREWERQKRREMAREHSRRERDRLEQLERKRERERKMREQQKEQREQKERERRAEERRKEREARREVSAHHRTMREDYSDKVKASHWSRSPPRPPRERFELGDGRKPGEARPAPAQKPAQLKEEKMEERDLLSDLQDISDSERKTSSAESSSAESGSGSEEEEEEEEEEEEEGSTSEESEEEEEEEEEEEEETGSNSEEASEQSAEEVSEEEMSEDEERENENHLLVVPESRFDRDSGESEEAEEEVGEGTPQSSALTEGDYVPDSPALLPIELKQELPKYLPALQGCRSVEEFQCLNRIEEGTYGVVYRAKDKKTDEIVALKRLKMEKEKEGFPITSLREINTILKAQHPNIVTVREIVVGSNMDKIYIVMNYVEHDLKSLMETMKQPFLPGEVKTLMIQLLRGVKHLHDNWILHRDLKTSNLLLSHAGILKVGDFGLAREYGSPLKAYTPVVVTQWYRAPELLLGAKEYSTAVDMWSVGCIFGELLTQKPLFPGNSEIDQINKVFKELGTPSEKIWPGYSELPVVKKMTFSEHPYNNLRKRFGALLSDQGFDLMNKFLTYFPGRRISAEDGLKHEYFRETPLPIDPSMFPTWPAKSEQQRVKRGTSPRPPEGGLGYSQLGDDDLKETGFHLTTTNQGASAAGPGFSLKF
UniProt O00238, sequence (whole entry, looked up): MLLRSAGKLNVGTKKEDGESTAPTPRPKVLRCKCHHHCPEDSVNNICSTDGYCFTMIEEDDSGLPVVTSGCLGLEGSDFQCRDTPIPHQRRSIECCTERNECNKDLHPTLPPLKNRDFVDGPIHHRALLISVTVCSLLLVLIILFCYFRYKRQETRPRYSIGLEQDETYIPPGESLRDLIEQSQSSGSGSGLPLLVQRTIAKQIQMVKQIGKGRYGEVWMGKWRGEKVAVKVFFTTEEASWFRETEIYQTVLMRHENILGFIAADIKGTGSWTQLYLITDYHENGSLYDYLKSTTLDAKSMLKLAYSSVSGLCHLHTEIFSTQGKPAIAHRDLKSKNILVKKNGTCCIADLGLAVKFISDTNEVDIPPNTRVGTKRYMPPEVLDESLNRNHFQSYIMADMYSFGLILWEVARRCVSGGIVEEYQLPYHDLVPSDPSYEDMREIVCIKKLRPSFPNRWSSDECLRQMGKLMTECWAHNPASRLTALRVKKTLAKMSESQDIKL

Sample 1 — concentration: 1 µM; endpoint: remaining binding
Structure (SMILES): Cc1ccc(NC(=O)c2ccnc(C(F)(F)F)c2)cc1-c1cc(OCCO)nc(N2CCOCC2)c1
Dual specificity tyrosine-phosphorylation-regulated kinase 2 (DYRK2, Homo sapiens, UniProt Q92630); competitive binding panel; reference: vehicle: 99%
SRSF protein kinase 1 (SRPK1, Homo sapiens, UniProt Q96SB4); competitive binding panel; reference: vehicle: 99%
Dual specificity mitogen-activated protein kinase kinase 5 (MAP2K5, Homo sapiens, UniProt Q13163); competitive binding panel, item: MEK5; reference: vehicle: 95%
Tyrosine-protein kinase ABL1 (ABL1, Homo sapiens, UniProt P00519, H396P); competitive binding scan: 83%
Serine/threonine-protein kinase PAK 2 (PAK2, Homo sapiens, UniProt Q13177); competitive binding panel; reference: vehicle: 100%
MAP kinase-interacting serine/threonine-protein kinase 1 (MKNK1, Homo sapiens, UniProt Q9BUB5); competitive binding panel; reference: vehicle: 85%
Mitogen-activated protein kinase kinase kinase 14 (MAP3K14, Homo sapiens, UniProt Q99558); competitive binding, scanMAX; NIK, 1000 nM: 100%
Mitogen-activated protein kinase 7 (MAPK7, Homo sapiens, UniProt Q13164); competitive binding panel, item: ERK5; reference: vehicle: 100%
Dual specificity mitogen-activated protein kinase kinase 6 (MAP2K6, Homo sapiens, UniProt P52564); competitive binding panel, item: MEK6; reference: vehicle: 95%
Tyrosine-protein kinase FRK (FRK, Homo sapiens, UniProt P42685); competitive binding panel; reference: vehicle: 55%
Vascular endothelial growth factor receptor 1 (FLT1, Homo sapiens, UniProt P17948); competitive binding panel; reference: vehicle: 89%
Death-associated protein kinase 3 (DAPK3, Homo sapiens, UniProt O43293); competitive binding panel; reference: vehicle: 100%
Ephrin type-A receptor 2 (EPHA2, Homo sapiens, UniProt P29317); competitive binding panel; reference: vehicle: 63%

Sample 2 — technique: competition with immobilised ligand; concentration: 1 µM; endpoint: remaining binding
Compound: CN(C)C(=O)Cn1cc(-c2nc([C@@](C)(c3ccc(-c4cnc(N)nc4)cc3)C3CC3)no2)cn1
Serine/threonine-protein kinase OSR1 (OXSR1, Homo sapiens, UniProt O95747); cell-free assay: 86%
Activin receptor type-1 (ACVR1, Homo sapiens, UniProt Q04771); cell-free assay: 84%
Hormonally up-regulated neu tumor-associated kinase (HUNK, Homo sapiens, UniProt P57058); cell-free assay: 100%
Cyclin-dependent kinase 16 (CDK16, Homo sapiens, UniProt Q00536); cell-free assay: 86%
Serine/threonine-protein kinase 33 (STK33, Homo sapiens, UniProt Q9BYT3); cell-free assay: 100%
Ribosomal protein S6 kinase alpha-1, N-terminal kinase domain (RPS6KA1, Homo sapiens, UniProt Q15418); cell-free assay: 93%
RAC-gamma serine/threonine-protein kinase (AKT3, Homo sapiens, UniProt Q9Y243); cell-free assay: 100%
Mitogen-activated protein kinase 13 (MAPK13, Homo sapiens, UniProt O15264); cell-free assay: 93%
Protein kinase C eta type (PRKCH, Homo sapiens, UniProt P24723); cell-free assay: 100%
Tyrosine-protein kinase ABL1, phosphorylated (ABL1, Homo sapiens, UniProt P00519, E255K); binding: 95%
Proto-oncogene tyrosine-protein kinase ROS (ROS1, Homo sapiens, UniProt P08922); cell-free assay: 88%
Serine/threonine-protein kinase mTOR (MTOR, Homo sapiens, UniProt P42345); cell-free assay: 100%
Tyrosine-protein kinase ABL1, phosphorylated (ABL1, Homo sapiens, UniProt P00519, F317L); cell-free assay: 88%
5'-AMP-activated protein kinase catalytic subunit alpha-2 (PRKAA2, Homo sapiens, UniProt P54646); cell-free assay: 100%
Proto-oncogene tyrosine-protein kinase receptor Ret (RET, Homo sapiens, UniProt P07949); cell-free assay: 94%
Serine/threonine-protein kinase PAK 6 (PAK6, Homo sapiens, UniProt Q9NQU5); cell-free assay: 100%
Tyrosine-protein kinase Fyn (FYN, Homo sapiens, UniProt P06241); cell-free assay: 86%
Mitogen-activated protein kinase 12 (MAPK12, Homo sapiens, UniProt P53778); cell-free assay: 94%
Dual specificity mitogen-activated protein kinase kinase 5 (MAP2K5, Homo sapiens, UniProt Q13163); cell-free assay: 62%
Tyrosine-protein kinase ITK/TSK (ITK, Homo sapiens, UniProt Q08881); cell-free assay: 99%
High affinity nerve growth factor receptor (NTRK1, Homo sapiens, UniProt P04629); cell-free assay: 70%
Interleukin-1 receptor-associated kinase 1 (IRAK1, Homo sapiens, UniProt P51617); cell-free assay: 85%
Mitogen-activated protein kinase 15 (MAPK15, Homo sapiens, UniProt Q8TD08); cell-free assay: 91%
Testis-specific serine/threonine-protein kinase 1 (TSSK1B, Homo sapiens, UniProt Q9BXA7); cell-free assay: 100%
Tyrosine-protein kinase JAK1, JH1 (JAK1, Homo sapiens, UniProt P23458); cell-free assay: 100%

Sample 3 — observed: enzyme activity; action: inhibitor; concentration: 1 µM; endpoint: inhibition
SMILES: CO[C@@H]1[C@H](N(C)C(=O)c2ccccc2)C[C@H]2O[C@]1(C)n1c3ccccc3c3c4c(c5c6ccccc6n2c5c31)C(=O)NC4
Cyclin-dependent kinase 7 (CDK7, Homo sapiens, UniProt P50613): 0%
Bone morphogenetic protein receptor type-1B (BMPR1B, Homo sapiens, UniProt O00238): 6%
Tyrosine-protein kinase Tec (TEC, Homo sapiens, UniProt P42680): 0%
Serine/threonine-protein kinase DCLK1 (DCLK1, Homo sapiens, UniProt O15075): 18%
Serine/threonine-protein kinase Nek5 (NEK5, Homo sapiens, UniProt Q6P3R8): 0%
Tyrosine-protein kinase FRK (FRK, Homo sapiens, UniProt P42685): 31%
Serine/threonine-protein kinase NIM1 (NIM1K, Homo sapiens, UniProt Q8IY84): 0%
Ephrin type-A receptor 8 (EPHA8, Homo sapiens, UniProt P29322): 6%
Tyrosine-protein kinase ABL1, non-phosphorylated (ABL1, Homo sapiens, UniProt P00519, H396P): 5%
Serine/threonine-protein kinase ICK (CILK1, Homo sapiens, UniProt Q9UPZ9): 12%
Myotonin-protein kinase (DMPK, Homo sapiens, UniProt Q09013): 0%
Phosphatidylinositol 5-phosphate 4-kinase type-2 gamma (PIP4K2C, Homo sapiens, UniProt Q8TBX8): 0%
Cyclin-dependent kinase 11A (CDK11A, Homo sapiens, UniProt Q9UQ88): 0%
Serine/threonine-protein kinase tousled-like 1 (TLK1, Homo sapiens, UniProt Q9UKI8): 0%
Serine/threonine-protein kinase pim-2 (PIM2, Homo sapiens, UniProt Q9P1W9): 0%
Serine/threonine-protein kinase LATS1 (LATS1, Homo sapiens, UniProt O95835): 74%
Calcium/calmodulin-dependent protein kinase kinase 1 (CAMKK1, Homo sapiens, UniProt Q8N5S9): 89%

Sample 4 — observed: enzyme activity; action: inhibitor; concentration: 0.5 µM; reference: control; endpoint: remaining activity
Target: NUAK family SNF1-like kinase 1 (NUAK1, Homo sapiens, UniProt O60285)
UniProt O60285, sequence (whole entry, looked up): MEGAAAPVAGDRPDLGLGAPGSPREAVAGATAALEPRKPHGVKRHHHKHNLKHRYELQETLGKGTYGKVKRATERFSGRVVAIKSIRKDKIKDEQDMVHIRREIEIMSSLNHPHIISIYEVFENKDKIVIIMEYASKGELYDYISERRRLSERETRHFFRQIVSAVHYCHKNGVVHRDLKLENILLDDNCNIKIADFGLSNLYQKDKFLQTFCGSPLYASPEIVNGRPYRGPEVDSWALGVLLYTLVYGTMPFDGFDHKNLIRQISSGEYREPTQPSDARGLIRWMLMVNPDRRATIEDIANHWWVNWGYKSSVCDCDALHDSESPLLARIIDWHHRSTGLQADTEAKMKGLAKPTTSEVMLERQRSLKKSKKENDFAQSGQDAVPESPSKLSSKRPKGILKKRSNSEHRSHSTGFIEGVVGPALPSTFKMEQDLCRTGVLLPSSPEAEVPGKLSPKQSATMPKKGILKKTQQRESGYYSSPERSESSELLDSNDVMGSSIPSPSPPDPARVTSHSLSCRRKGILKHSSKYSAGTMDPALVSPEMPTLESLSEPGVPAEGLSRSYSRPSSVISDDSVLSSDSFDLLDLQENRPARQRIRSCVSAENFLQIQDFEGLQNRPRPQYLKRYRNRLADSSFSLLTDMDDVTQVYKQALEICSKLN
COc1cc2c(cc1OC)-c1[nH]nc(Nc3cccc(F)c3)c1C2: 88.5%
Nc1cccc(-c2cc3c(Oc4cccc(O)c4)ncnc3[nH]2)c1: 37%
N#C/C(=C\c1ccc(O)c(O)c1)C(=O)NCc1ccccc1: 90%
Ic1cccc(CSc2nnc(-c3ccncc3)o2)c1: 95.1%
Cc1cc2ncc(-c3ccccc3)nc2cc1C: 92.3%
COc1cc2ncnc(Nc3cccc(Cl)c3)c2cc1OC: 75.8%
Cn1nc2c3c(cccc31)C(=O)c1ccccc1-2: 46.2%
O=C1C(Cl)=C(N2C(=O)CCC2=O)C(=O)c2ccccc21: 105%
COc1cc2ncnc(Nc3ccc(O)c(Br)c3)c2cc1OC: 68.2%
c1ccc(-c2[nH]ncc2-c2ccnc3ccccc23)nc1: 95.5%
O=C(Nc1cccc(Nc2nccc(Nc3cccc(C(F)(F)F)c3)n2)c1)C1CC1: 67.2%
CCOc1nc(NC(=O)Cc2cc(OC)ccc2OC)cc(N)c1C#N: 96.1%
Cc1nc2cc3nc(-c4cccs4)cnc3cc2n1C: 95.3%
CCN(CC)C(=O)c1ccc(Nc2nc(OCC3CCCCC3)c3[nH]cnc3n2)cc1: 3.67%

Repeated from above (sample 2):
Testis-specific serine/threonine-protein kinase 1 (TSSK1B, Homo sapiens, UniProt Q9BXA7); cell-free assay: 100%
Tyrosine-protein kinase ABL1, phosphorylated (ABL1, Homo sapiens, UniProt P00519, F317L); cell-free assay: 88%
High affinity nerve growth factor receptor (NTRK1, Homo sapiens, UniProt P04629); cell-free assay: 70%
Serine/threonine-protein kinase OSR1 (OXSR1, Homo sapiens, UniProt O95747); cell-free assay: 86%
Protein kinase C eta type (PRKCH, Homo sapiens, UniProt P24723); cell-free assay: 100%
Tyrosine-protein kinase Fyn (FYN, Homo sapiens, UniProt P06241); cell-free assay: 86%
Serine/threonine-protein kinase PAK 6 (PAK6, Homo sapiens, UniProt Q9NQU5); cell-free assay: 100%
Hormonally up-regulated neu tumor-associated kinase (HUNK, Homo sapiens, UniProt P57058); cell-free assay: 100%
Interleukin-1 receptor-associated kinase 1 (IRAK1, Homo sapiens, UniProt P51617); cell-free assay: 85%
